Results of several laboratories.
A part holds a random share of what one study measured.
UniProt P06239, sequence (whole entry, looked up): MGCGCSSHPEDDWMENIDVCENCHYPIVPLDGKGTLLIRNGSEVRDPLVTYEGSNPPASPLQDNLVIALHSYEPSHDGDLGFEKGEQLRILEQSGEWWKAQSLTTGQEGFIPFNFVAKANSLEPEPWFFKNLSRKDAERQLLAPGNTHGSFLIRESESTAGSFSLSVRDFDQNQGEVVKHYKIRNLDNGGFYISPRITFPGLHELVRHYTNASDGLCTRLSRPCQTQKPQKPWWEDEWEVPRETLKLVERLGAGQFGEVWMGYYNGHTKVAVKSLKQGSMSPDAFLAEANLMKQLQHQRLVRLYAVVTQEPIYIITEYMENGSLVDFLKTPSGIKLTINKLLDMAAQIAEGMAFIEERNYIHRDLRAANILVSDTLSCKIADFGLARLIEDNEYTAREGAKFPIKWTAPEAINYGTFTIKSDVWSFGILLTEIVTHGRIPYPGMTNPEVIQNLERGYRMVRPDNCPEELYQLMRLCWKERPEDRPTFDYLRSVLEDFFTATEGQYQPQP
UniProt Q8NFD2, sequence (whole entry, looked up): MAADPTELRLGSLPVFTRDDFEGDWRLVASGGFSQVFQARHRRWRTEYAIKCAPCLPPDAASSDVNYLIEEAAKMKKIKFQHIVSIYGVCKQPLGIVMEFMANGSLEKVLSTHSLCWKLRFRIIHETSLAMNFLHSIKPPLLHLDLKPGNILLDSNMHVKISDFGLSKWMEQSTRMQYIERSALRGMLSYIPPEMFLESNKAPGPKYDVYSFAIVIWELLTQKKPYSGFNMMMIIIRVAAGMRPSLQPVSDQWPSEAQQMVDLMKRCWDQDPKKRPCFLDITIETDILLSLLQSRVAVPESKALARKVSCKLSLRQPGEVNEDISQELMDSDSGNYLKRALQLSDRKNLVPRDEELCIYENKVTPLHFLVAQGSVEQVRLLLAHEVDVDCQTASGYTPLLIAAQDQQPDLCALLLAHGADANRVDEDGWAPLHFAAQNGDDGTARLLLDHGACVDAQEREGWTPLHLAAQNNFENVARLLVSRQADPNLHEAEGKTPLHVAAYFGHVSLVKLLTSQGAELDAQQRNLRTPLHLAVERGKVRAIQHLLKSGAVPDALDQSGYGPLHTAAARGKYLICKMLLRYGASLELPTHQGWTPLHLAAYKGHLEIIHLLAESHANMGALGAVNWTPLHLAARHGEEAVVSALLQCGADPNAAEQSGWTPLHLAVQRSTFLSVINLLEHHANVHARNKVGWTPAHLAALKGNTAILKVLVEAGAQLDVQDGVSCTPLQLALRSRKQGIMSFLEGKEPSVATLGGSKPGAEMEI
UniProt P49137, sequence (whole entry, looked up): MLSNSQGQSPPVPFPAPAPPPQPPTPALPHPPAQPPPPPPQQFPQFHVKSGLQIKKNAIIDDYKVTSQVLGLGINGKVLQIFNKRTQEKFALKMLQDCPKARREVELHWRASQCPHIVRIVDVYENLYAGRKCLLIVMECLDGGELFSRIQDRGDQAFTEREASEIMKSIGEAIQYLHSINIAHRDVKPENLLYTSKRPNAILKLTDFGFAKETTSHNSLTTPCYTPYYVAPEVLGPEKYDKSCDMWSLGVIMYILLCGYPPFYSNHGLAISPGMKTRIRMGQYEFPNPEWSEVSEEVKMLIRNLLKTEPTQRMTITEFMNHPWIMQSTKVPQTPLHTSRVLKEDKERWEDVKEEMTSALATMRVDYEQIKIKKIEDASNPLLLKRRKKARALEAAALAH
UniProt Q5MAI5, sequence (whole entry, looked up): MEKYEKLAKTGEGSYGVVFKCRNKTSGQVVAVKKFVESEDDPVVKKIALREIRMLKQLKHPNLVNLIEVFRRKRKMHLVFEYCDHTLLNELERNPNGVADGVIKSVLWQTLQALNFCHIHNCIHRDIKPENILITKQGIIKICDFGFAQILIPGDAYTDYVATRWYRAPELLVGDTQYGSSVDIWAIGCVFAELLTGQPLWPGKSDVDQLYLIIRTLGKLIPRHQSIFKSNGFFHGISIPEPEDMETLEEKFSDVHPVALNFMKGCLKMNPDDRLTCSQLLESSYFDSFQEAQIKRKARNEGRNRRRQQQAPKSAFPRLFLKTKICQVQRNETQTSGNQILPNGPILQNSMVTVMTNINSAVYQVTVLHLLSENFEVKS
UniProt Q9Y6M4, sequence (whole entry, looked up): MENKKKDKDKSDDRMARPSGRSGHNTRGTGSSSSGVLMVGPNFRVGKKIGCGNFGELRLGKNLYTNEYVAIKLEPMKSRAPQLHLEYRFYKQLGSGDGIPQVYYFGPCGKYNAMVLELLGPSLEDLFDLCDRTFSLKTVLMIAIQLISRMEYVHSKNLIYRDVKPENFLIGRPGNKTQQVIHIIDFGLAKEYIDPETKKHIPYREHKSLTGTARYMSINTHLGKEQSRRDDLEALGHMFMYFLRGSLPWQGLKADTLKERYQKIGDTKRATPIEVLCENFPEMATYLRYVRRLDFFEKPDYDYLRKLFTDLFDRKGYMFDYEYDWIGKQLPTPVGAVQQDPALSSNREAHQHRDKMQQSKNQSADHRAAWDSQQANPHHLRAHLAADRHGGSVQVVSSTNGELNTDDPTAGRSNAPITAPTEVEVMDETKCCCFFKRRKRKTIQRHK
UniProt O75582, sequence (whole entry, looked up): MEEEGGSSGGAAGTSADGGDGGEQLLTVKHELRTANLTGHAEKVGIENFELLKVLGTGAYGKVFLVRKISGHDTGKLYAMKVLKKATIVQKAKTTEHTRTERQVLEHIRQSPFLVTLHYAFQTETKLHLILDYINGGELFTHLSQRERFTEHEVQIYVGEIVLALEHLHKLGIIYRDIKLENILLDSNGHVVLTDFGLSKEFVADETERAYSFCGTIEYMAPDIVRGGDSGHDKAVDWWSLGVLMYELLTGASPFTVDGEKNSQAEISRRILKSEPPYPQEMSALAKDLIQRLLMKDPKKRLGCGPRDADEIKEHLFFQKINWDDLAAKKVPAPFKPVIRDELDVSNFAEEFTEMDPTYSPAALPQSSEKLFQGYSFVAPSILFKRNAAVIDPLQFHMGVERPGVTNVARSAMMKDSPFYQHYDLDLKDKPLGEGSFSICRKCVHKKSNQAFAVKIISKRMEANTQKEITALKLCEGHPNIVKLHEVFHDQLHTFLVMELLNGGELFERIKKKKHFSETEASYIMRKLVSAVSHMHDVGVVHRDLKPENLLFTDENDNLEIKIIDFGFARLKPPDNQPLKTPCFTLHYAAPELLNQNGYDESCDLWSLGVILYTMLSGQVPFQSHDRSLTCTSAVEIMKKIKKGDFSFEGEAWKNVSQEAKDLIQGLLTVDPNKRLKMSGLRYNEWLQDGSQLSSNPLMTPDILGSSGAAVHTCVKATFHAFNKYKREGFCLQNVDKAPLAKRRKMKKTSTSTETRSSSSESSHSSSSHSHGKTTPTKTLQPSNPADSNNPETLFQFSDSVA
UniProt Q16288, sequence (whole entry, looked up): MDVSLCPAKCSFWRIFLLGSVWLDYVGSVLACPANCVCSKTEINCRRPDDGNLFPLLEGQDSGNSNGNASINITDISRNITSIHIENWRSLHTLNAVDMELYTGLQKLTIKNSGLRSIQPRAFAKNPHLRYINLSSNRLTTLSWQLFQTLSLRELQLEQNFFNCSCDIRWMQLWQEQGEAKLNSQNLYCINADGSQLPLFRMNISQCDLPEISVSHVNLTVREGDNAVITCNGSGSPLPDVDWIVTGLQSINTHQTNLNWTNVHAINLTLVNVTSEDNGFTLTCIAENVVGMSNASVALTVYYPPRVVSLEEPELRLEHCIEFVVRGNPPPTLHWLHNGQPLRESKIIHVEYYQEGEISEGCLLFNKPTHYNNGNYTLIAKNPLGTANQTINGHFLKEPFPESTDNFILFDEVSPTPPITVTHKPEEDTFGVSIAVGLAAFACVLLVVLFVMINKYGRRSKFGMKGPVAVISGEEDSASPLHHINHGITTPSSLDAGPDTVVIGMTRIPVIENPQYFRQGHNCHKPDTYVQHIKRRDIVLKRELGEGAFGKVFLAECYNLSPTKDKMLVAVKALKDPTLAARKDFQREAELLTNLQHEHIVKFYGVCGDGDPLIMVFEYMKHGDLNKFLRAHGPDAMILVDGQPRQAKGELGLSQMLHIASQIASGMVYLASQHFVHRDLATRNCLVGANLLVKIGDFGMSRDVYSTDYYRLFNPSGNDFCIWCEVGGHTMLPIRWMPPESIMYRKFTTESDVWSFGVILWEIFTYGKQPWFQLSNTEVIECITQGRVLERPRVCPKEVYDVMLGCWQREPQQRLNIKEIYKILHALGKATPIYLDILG
UniProt P22607, sequence (whole entry, looked up): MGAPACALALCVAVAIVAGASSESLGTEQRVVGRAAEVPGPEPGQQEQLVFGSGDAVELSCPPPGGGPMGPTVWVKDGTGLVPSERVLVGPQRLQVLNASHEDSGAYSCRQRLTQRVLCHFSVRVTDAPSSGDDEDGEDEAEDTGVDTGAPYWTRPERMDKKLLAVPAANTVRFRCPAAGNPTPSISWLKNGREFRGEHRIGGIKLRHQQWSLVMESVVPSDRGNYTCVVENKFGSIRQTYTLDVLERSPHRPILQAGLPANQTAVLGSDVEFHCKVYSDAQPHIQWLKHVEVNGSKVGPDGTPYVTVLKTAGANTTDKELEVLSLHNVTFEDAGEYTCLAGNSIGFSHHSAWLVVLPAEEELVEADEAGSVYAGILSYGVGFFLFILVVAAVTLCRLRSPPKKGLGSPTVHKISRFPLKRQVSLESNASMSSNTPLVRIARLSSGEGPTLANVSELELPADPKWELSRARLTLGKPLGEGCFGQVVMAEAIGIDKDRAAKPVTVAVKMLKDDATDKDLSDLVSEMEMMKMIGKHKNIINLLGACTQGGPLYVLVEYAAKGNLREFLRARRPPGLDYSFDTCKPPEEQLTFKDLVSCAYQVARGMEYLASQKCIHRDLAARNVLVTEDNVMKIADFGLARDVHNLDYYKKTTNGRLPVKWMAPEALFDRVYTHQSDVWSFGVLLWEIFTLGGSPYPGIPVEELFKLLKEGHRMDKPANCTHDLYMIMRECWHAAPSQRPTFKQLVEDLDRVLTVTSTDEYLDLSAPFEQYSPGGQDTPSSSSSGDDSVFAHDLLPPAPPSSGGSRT

Study 1 — species: human; medium: microsomes or S9; tested at: 2 µM; time: 0.5 h
With COC(=O)Cn1c(=O)cc(C)c2c(OC)ccc(OC)c21 the remaining compound was 0.077%.
COc1cc(=O)[nH]cc1C(=O)N1CCCC(c2cnn(C)c2)C1 (centres unmarked) gave a remaining compound of 76.1%.
COCCCn1c(C(=O)Nc2cc(Cl)ccc2OC)cc2c(=O)n3ccccc3nc21 gave a remaining compound of 28.5%.
O=C1C=C(N(Cc2ccc(Cl)nc2)C2COC2)CO1 has a remaining compound of 90.2%.

Study 2 — effect on: cell-free assay; method: competition with immobilised ligand; tested at: 1 µM
SMILES: COc1cccc(CNC(=O)c2nc3scc(COCc4ccc(C(=O)O)cc4)c3c(=O)[nH]2)c1
The remaining binding was 89.2% (Phosphatidylinositol 4,5-bisphosphate 3-kinase catalytic subunit alpha isoform (PIK3CA, Homo sapiens, UniProt P42336, E545A)).
It gave 91.1% for remaining binding (cAMP-dependent protein kinase catalytic subunit beta (PRKACB, Homo sapiens, UniProt P22694)).
For Ankyrin repeat and protein kinase domain-containing protein 1 (ANKK1, Homo sapiens, UniProt Q8NFD2): remaining binding read 70.9%.
It gave 93.1% for remaining binding (Ribosomal protein S6 kinase alpha-5, C-terminal kinase domain (RPS6KA5, Homo sapiens, UniProt O75582)).

Study 3 — cell line: HaCaT; tested at: 100 µM; time: 36 h
With c1cnc2cc3c(cc2n1)[C@@H]1CNC[C@H]3C1 the viability was 97%.
The viability of Cc1cc(O)cc(C)c1Cl is reported as 73.7%.
CC(C)(C)c1cc(C(C)(C)C)c(NC(=O)c2c[nH]c3ccccc3c2=O)cc1O has a viability of 5.66%.

Study 4 — SMILES: CNc1cc2c(Nc3cccc(Br)c3)ncnc2cn1; effect on: enzyme activity; mode: inhibitor; tested at: 0.5 µM; baseline: control
The remaining activity was 83.8% (Rhodopsin kinase GRK7 (GRK7, Homo sapiens, UniProt Q8WTQ7)).
It gave 96.7% for remaining activity (Tyrosine-protein kinase Lck (LCK, Homo sapiens, UniProt P06239)).
Serine/threonine-protein kinase Nek1 (NEK1, Homo sapiens, UniProt Q96PY6) — remaining activity: 70.3%.
Tyrosine-protein kinase FRK (FRK, Homo sapiens, UniProt P42685) — remaining activity: 91.2%.
The remaining activity was 94.5% (Serine/threonine-protein kinase TBK1 (TBK1, Homo sapiens, UniProt Q9UHD2)).
Serine/threonine-protein kinase ULK2 (ULK2, Homo sapiens, UniProt Q8IYT8) — remaining activity: 119%.
MAP kinase-activated protein kinase 2 (MAPKAPK2, Homo sapiens, UniProt P49137) — remaining activity: 99.6%.
The remaining activity was 86.3% (Casein kinase I isoform gamma-3 (CSNK1G3, Homo sapiens, UniProt Q9Y6M4)).
For Mitogen-activated protein kinase 3 (MAPK3, Homo sapiens, UniProt P27361): remaining activity read 97.3%.
Ribosomal protein S6 kinase alpha-2 (RPS6KA2, Homo sapiens, UniProt Q15349) — remaining activity: 83.5%.
Angiopoietin-1 receptor (TEK, Homo sapiens, UniProt Q02763) — remaining activity: 87.9%.
Mitogen-activated protein kinase kinase kinase 5 (MAP3K5, Homo sapiens, UniProt Q99683) — remaining activity: 94.6%.
It gave 85.4% for remaining activity (Fibroblast growth factor receptor 3 (FGFR3, Homo sapiens, UniProt P22607)).
Serine/threonine-protein kinase Nek6 (NEK6, Homo sapiens, UniProt Q9HC98) — remaining activity: 89.8%.

Study 5 — effect on: kinase activity; mode: inhibitor; tested at: 1 µM
SMILES: CC(C)S(=O)(=O)c1ccc2nccc(Nc3ccc4sc(C5CCCC5)nc4c3)c2c1.Cl
Ephrin type-B receptor 3 (EPHB3, Homo sapiens, UniProt P54753) — remaining activity: 92%.
It gave 91% for remaining activity (NT-3 growth factor receptor (NTRK3, Homo sapiens, UniProt Q16288)).
It gave 91% for remaining activity (Tyrosine-protein kinase Fer (FER, Homo sapiens, UniProt P16591)).
It gave 83% for remaining activity (Cyclin-dependent kinase-like 4 (CDKL4, Homo sapiens, UniProt Q5MAI5)).
